Published values collected from several papers.
Each numbered part is a random draw from the data of one study; scales do not carry over between parts. Changes are numbered by the printed parent chain.

Block 1 — technique: RNA Bind-n-Seq; form: RNA; medium: in vitro; tested at: 200 nM; notes: whole 134-nt RNA, ends assumed; together with: 150 mM KCl; relative to: input library; reading: higher = stronger binding
Target: Ras GTPase-activating protein-binding protein 1, full length (G3BP1, Homo sapiens, UniProt Q13283)
Sequence of UniProt Q13283 (whole entry, looked up): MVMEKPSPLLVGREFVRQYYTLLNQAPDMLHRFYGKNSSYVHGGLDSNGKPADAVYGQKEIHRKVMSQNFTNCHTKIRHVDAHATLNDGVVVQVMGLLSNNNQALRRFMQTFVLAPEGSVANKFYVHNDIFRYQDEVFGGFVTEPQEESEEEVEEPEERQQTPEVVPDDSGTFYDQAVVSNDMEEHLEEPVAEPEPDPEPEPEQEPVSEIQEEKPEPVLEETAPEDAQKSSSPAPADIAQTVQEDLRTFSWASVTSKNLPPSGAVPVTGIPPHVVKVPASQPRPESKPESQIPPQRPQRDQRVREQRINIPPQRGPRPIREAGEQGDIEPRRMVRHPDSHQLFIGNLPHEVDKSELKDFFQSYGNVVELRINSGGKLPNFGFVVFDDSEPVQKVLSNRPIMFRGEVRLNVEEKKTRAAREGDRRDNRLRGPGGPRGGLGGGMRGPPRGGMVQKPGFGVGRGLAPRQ
All sequences stand within: GGGAGUUCUACAGUCCGACGAUC … UGGAAUUCUCGGGUGUCAAGG
Strand	log2 enrichment
AAGUCCUGUGCUACACAUCGUAUGUACCGAAUCGGGUUUGGGUUUGGGUUUUUGGGAAAGUAUUAUGUUACGCCGUUCGGAUCUGCACUU	0.0243
UCAAGUCCUGUGCUACACAUCGUAUGUACCGAAUCGGGUGGGUUUGGGUUUGGGAAAGUAUUAUGUUACGCCGUUCGGAUCUGCACUUCC	0.882
CACAGACAACACGCACCCACACAGACACAGAGGGAAGGGGUUGGGAUGGGGACAGGGUGCACAGCAGGGCGGGGUAGGCCCCCAGCCCCU	1.83
CAAGUCCUGUGCUACACAUCGUAUGUACCGAAUCGGGGAAGGGAAGGGGAAGGGGAAAGUAUUAUGUUACGCCGUUCGGAUCUGCACUUC	1.09
CACAGACAACACGCACCCACACAGACACAGAGGGAAGGGGUUGGGAUGGGGACAGGGUGCACAGCAGGGCGGGGUAGGACCCAAGCCCCU	1.92
UGGCCCUGGUGGCAUGCGGGGAGGAAGAGGUGGCCUCAUGGCUCGUGGUGGUCCCGGUGGAAUGUUCAGAGGUGGCCGUGGUGGAGACAG	0.145
CCUCAAGUCCUGUGCUACACAUCGUAUGUACCGAAUCGGAGGAAAAAGGAGGAAAGUAUUAUGUUACGCCGUUCGGAUCUGCACUUCCAG	0.0323
UAACUUUAGAGGAGGAUCUGAUGGAUAUGGCAGUGGACGUGGAUUUGGGGAUGGCUAGAAUGGGUAUGGAGGAGGACCUGGAGGUGGCAA	0.392
CCCAUGCAGGUGGGCAUCUUUGGGAAGUGGGGCAAGGGGGGGAUAGGGAGGGGGGUAACACUUUGGGAACAGGUGGUCCCAGGUCGUUUC	0.971
UCCUCAAGUCCUGUGCUACACAUCGUAUGUACCGAAUCGGAGGUGGUUUGGAAAGUAUUAUGUUACGCCGUUCGGAUCUGCACUUCCAGC	-0.742

Block 2 — target: CCND3, cyclin fold, Cln2 fusion (human); technique: yeast growth competition, sequencing; medium: yeast; notes: weak parent motif; relative to: not given; reading: higher = stronger binding
Parent: BRCA2 docking peptide (human); PSIKRNLLNEFDR
Substitution	normalised enrichment score
ISIKRNLLNEFDR [P1I]	0.108
PSIKRNLGNEFDR [L8G]	0.0617
PSIKRNDLNEFDR [L7D]	0.0498
PSIKRNLLTEFDR [N9T]	0.257
PSIKRNLLNEFAR [D12A]	0.235
PSIKRNLLNFFDR [E10F]	0.153
PSIKRNLANEFDR [L8A]	0.124
PPIKRNLLNEFDR [S2P]	0.032
SSIKRNLLNEFDR [P1S]	0.104
PSIKRNLQNEFDR [L8Q]	0.0362
PSIKRNLLNEEDR [F11E]	0.0635
PSIKRNLLNEKDR [F11K]	0.139
PSICRNLLNEFDR [K4C]	0.265
PSKKRNLLNEFDR [I3K]	0.152
PSIKRNLLPEFDR [N9P]	0.144
PSITRNLLNEFDR [K4T]	0.0962
PSIKKNLLNEFDR [R5K]	0.191
PSIDRNLLNEFDR [K4D]	0.0812
PSEKRNLLNEFDR [I3E]	0.126
PSIKRNLLGEFDR [N9G]	0.17
PSIKRNLLNEFDF [R13F]	0.0936
PSIKMNLLNEFDR [R5M]	0.135
PSIKRDLLNEFDR [N6D]	0.0673
PSIKYNLLNEFDR [R5Y]	0.0403
PSIWRNLLNEFDR [K4W]	-0.0659

Block 3 — technique: RNA Bind-n-Seq; form: RNA; medium: in vitro; tested at: 365 nM; relative to: no-protein control; reading: higher = stronger binding
Target: RNA binding protein fox-1 homolog 2, RRM domain, GST-SBP tag (RBFOX2, Homo sapiens, UniProt O43251-10, residues 100-194)
Notes: natural RNA segment, single round, ends assumed
All sequences stand within: GGGAGUUCUACAGUCCGACGAUC … UGGAAUUCUCGGGUGCCAA
Strand	RBNS enrichment (R)
GACUUGGGAAAAUGUUUCUGGAGAGGCUUUCAGAGUGGCUGGAAAAGGCUCUUGUUGCUGUAAUUUAGAGAGGAGCUCUGUGUCCUUGGCCAGUCAAGUAAGUUCCUGGA	0.451
AAUUGUAUGAAAAAAAAACUCUGCCUUCAAGCCUUUAAGGCAGGUUUUUAAGUCAUCAGCCAUAGUCCUAGGGUGAAGAACUCCAUUUGUGGGCCUUGUUCCCUUUGAAG	0.763
CUGGACCGGUCUGGGUUUAAUCUCCCACAAUAAAGAUAAACCCCACGGACCUCACUGCUACUGCUGCCUCCAUUAACGCUGUGCUCACACAUUGUCUGGGAUUUUAAGGA	0.597
GAAGCUGGUGUUCGCUGUCCCCUGUGCACUUCUCGCACUGGGGCAUGGAGUGCCCAUGCAUACUCUGCUGCCGGUCCCCUCACCUGCACUUGAGGGGUCUGGGCAGUCCC	0.812
CCAAAUAGCCUGGAGUUGUUUGUCCUACUUGUUCCAUAACCCCUAUGCUCAAGAUACUGAAGCUAUCUGUGGUAUUUCAUGUAACAUUUCUAAGAAUAAGAGCUGGCAAA	0.413
AUUGUCCUGUGUUUUUAUAGCACCCAAAUCAUUCUAAAAUAUGAACAUCUAAAAACUUUGCUAGGAGACUAAGAACCUUUGGAGAGAUAGAUAUAAGUACGGUCAAAAAA	0.531
CAUCACUGGAACCCGCACUAAACAAGGACCUUUGGACCAGACAAGAAGUCUUCCCUCAACUACGUGUGAUGACCAAGUCCAAGGUUGACCAGGGACUGUCUACAGCAGCC	0.396
GUGCCCGAGAGCUGCCUGGUGUCAGGUAGAGAGGACACUGUACCUGGGUGAAUGAUCAGACCCUGGUAGCUAAGAAGGAACUUGUCCCUUUGAGUCAGUGUGCAGACCCC	1.45
ACUGCCAAAAAGCUUCCUCUGAUGUCAAAUCAGGAUGUAUUACCGAAACUGAUUCCAAGGACAUCCACAUAGCUGAGCCAAGAUGCUCCAGGCCAGUGGCAGGUGGACUG	0.516
CCUAGAGGAGCGGAGUUUUCCGAGAGGACCAUCUCCUGGUUUCCUGAAGGAGGUGGGUGGAAACGGCUCUUGUUUGAAAGAACUUAGGGAGGACCAUUGGCUUGCCAAGA	0.538
CCUUCAUCGUAACAGCAGCGUGAAGUCCACAAUGGGCACCGUGACUGGGUGUUGGGCAUGGGGGCCCAUGGAGUCAAAAGGAAUGGAGAGAAGGGCUUUGUAAAUAGCAU	1.12
UCUUCUUCAGUUCAUUAAAAGUAACUACUAAGGAAAGGUUAAAAACUUCCCCUCAAAAAGGAAUCAACCCCAGGAAGUAAUUAUUUACAACGAUUUUCCCAAAUUUUGUA	0.39

Block 4 — technique: DHFR PCA, deep sequencing; medium: yeast; together with: (+)-ABA 0.11 µM; relative to: wild-type fitted maximum; reading: higher = stronger binding
Target: ABI1, truncated, D143A, DHFR fusion (Arabidopsis thaliana)
Notes: methotrexate growth selection, single substitutions
Parent: PYL1, truncated, DHFR fusion (Arabidopsis thaliana); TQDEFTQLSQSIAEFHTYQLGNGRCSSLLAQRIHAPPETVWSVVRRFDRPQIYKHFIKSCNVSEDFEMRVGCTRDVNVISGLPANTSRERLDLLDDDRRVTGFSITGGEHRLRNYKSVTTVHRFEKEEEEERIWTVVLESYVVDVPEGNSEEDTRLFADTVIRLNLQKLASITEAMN
Substitution	relative binding score
L169H	-2.8%
H55K	22.2%
S140W	-3.06%
V40K	-3.16%
Y115P	-5.88%
V118N	3.5%
L91Y	-3.87%
P146F	-7.87%
G71N	1.7%
C72F	3.63%
P83M	-0.393%
R163Y	-6.77%
A175L	12%
G102D	-3.19%
T120A	-2.19%
A30L	20%
D65V	1.92%
N85D	19%
I52Y	8.92%
A35L	-0.0668%
A175D	24.1%
T120E	-7.94%
L156W	8.98%
E147C	5.41%
T86K	12.9%

Block 5 — technique: protein binding microarray; form: double-stranded DNA, one strand shown; medium: in vitro; tested at: not given; relative to: not given; reading: higher = stronger binding
Target: Histone acetyltransferase KAT6A, winged helix 1, GST fusion (KAT6A, Homo sapiens, UniProt Q92794, residues 1-85)
Notes: 8-mer, flanks averaged, mean of 2 arrays, mostly near background
Residues (chain): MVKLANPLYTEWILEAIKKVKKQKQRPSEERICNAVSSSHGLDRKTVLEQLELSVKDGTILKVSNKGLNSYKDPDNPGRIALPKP
Strand	E-score
CTGATCGC	0.127
GAGCGGTA	0.286
GGATACAC	-0.115
AACACCAC	-0.106
ACTCTCCT	-0.182
CCACTGGA	-0.212
TATGAGCA	-0.212
AACTGGCC	-0.00167
AGCCTACG	0.156
GAGACCTA	-0.121
AGCAGATG	-0.328
CGTGATTC	0.0478
AAACGTTG	-0.141
TCTAGTAA	0.117
GGTGGCCA	-0.215
AGCACTGG	-0.172
ACATATGA	-0.14
CGCTGTAC	0.178
CGGTATTC	0.208
CGCAATAG	0.124
ACCAAGGA	-0.189
GCCAGCAC	-0.0408
AGGCGCCT	0.237
ATTACCGC	0.319
TACGCACA	0.0345

A few entries again (block 3):
Strand	RBNS enrichment (R)
GACUUGGGAAAAUGUUUCUGGAGAGGCUUUCAGAGUGGCUGGAAAAGGCUCUUGUUGCUGUAAUUUAGAGAGGAGCUCUGUGUCCUUGGCCAGUCAAGUAAGUUCCUGGA	0.451
AAUUGUAUGAAAAAAAAACUCUGCCUUCAAGCCUUUAAGGCAGGUUUUUAAGUCAUCAGCCAUAGUCCUAGGGUGAAGAACUCCAUUUGUGGGCCUUGUUCCCUUUGAAG	0.763
CUGGACCGGUCUGGGUUUAAUCUCCCACAAUAAAGAUAAACCCCACGGACCUCACUGCUACUGCUGCCUCCAUUAACGCUGUGCUCACACAUUGUCUGGGAUUUUAAGGA	0.597
GAAGCUGGUGUUCGCUGUCCCCUGUGCACUUCUCGCACUGGGGCAUGGAGUGCCCAUGCAUACUCUGCUGCCGGUCCCCUCACCUGCACUUGAGGGGUCUGGGCAGUCCC	0.812
CCAAAUAGCCUGGAGUUGUUUGUCCUACUUGUUCCAUAACCCCUAUGCUCAAGAUACUGAAGCUAUCUGUGGUAUUUCAUGUAACAUUUCUAAGAAUAAGAGCUGGCAAA	0.413
AUUGUCCUGUGUUUUUAUAGCACCCAAAUCAUUCUAAAAUAUGAACAUCUAAAAACUUUGCUAGGAGACUAAGAACCUUUGGAGAGAUAGAUAUAAGUACGGUCAAAAAA	0.531
CAUCACUGGAACCCGCACUAAACAAGGACCUUUGGACCAGACAAGAAGUCUUCCCUCAACUACGUGUGAUGACCAAGUCCAAGGUUGACCAGGGACUGUCUACAGCAGCC	0.396
GUGCCCGAGAGCUGCCUGGUGUCAGGUAGAGAGGACACUGUACCUGGGUGAAUGAUCAGACCCUGGUAGCUAAGAAGGAACUUGUCCCUUUGAGUCAGUGUGCAGACCCC	1.45
ACUGCCAAAAAGCUUCCUCUGAUGUCAAAUCAGGAUGUAUUACCGAAACUGAUUCCAAGGACAUCCACAUAGCUGAGCCAAGAUGCUCCAGGCCAGUGGCAGGUGGACUG	0.516
CCUAGAGGAGCGGAGUUUUCCGAGAGGACCAUCUCCUGGUUUCCUGAAGGAGGUGGGUGGAAACGGCUCUUGUUUGAAAGAACUUAGGGAGGACCAUUGGCUUGCCAAGA	0.538
CCUUCAUCGUAACAGCAGCGUGAAGUCCACAAUGGGCACCGUGACUGGGUGUUGGGCAUGGGGGCCCAUGGAGUCAAAAGGAAUGGAGAGAAGGGCUUUGUAAAUAGCAU	1.12
UCUUCUUCAGUUCAUUAAAAGUAACUACUAAGGAAAGGUUAAAAACUUCCCCUCAAAAAGGAAUCAACCCCAGGAAGUAAUUAUUUACAACGAUUUUCCCAAAUUUUGUA	0.39
